Published values pooled from the literature.
Compare with care: the assays were run in different laboratories.
Method: steady-state kinetics
B1: EutE V13D (Escherichia coli, UniProt P77445); chain MNQQDIEQVVKADLLKMQSSDTPSAAVHEMGVFASLDDAVAAAKVAQQGLKSVAMRQLAIAAIREAGEKHARDLAELAVSETGMGRVEDKFAKNVAQARGTPGVECLSPQVLTGDNGLTLIENAPWGVVASVTPSTNPAATVINNAISLIAAGNSVIFAPHPAAKKVSQRAITLLNQAIVAAGGPENLLVTVANPDIETAQRLFKFPGIGLLVVTGGEAVVEAARKHTNKRLIAAGAGNPPVVVDETADLARAAQSIVKGASFDNNIICADEKVLIVVDSVADELMRLMEGQHAVKLTAEQAQQLQPVLLKNIDERGKGTVSRDWVGRDAGKIAAAIGLKVPQETRLLFVETTAEHPFAVTELMMPVLPVVRVANVADAIALAVKLEGGCHHTAAMHSRNIENMNQMANAIDTSIFVKNGPCIAGLGLGGEGWTTMTITTPTGEGVTSARTFVRLRRCVLVDAFRIV
B2: Ptgds (Mus musculus, UniProt O09114); chain QGHDTVQPNFQQDKFLGRWYSAGLASNSSWFREKKAVLYMCKTVVAPSTEGGLNLTSTFLRKNQCETKIMVLQPAGAPGHYTYSSPHSGSIHSVSVVEANYDEYALLFSRGTKGPGQDFRMATLYSRTQTLKDELKEKFTTFSKAQGLTEEDIVFLPQPDKCIQE
B3: GLYR2 (Arabidopsis thaliana, UniProt F4I907); chain STRDELGTVSIGFLGMGIMGSPMAQNLIKAGCDVTVWNRTKSKCDPLVGLGAKYKSSPEEVTATCDLTFAMLADPESAIDVACGKNGAIFGISSGKGYVDVSTVDVASSILISKQIKDTGALFLEAPVSGSKKPAEDGQLIFLTAGDKPLYEKAAPFLDIMGKSKFYLGEVGNGAAMKLVVNMIMGSMMASFAEGILLSQKVGLDPNVLVEVVSQGAINAPMYSLKGPSMIKSVYPTAFPLKHQQKDMRLALGLAESVSQSTPIAAAANELYKVAKSYGLSDEDFSAVIEALKAAKSREA
B4: xoxF1 (Methylorubrum extorquens, UniProt C5B120); chain NESVLKGVANPAEQVLQTVDYANTRYSKLDQINASNVKNLQVAWTFSTGVLRGHEGSPLVVGNIMYVHTPFPNIVYALDLDQGAKIVWKYEPKQDPSVIPVMCCDTVNRGLAYADGAILLHQADTTLVSLDAKSGKVNWSVKNGDPSKGETNTATVLPVKDKVIVGISGGEFGVQCHVTAYDLKSGKKVWRGYSIGPDDQLIVDPEKTTSLGKPIGKDSSLKTWEGDQWKTGGGCTWGWFSYDPKLDLMYYGSGNPSTWNPKQRPGDNKWSMTIWARNPDTGMAKWVYQMTPHDEWDFDGINEMILTDQKFDGKDRPLLTHFDRNGFGYTLDRATGEVLVAEKFDPVVNWATKVDLDKGSKTYGRPLVVSKYSTEQNGEDVNSKGICPAALGTKDQQPAAFSPKTGLFYVPTNHVCMDYEPFRVTYTPGQPYVGATLSMYPAPGSHGGMGNFIAWDNLQGKIKWSNPEQFSAWGGALATAGDVVFYGTLEGFLKAVDSKTGKELYKFKTPSGIIGNVMTYEHKGKQHVAVLSGVGGWAGIGLAAGLTDPNAGLGAVGGYAALSSYTNLGGQLTVFSLPNN
B5: STS (Homo sapiens, UniProt P08842); chain HAASRPNIILVMADDLGIGDPGCYGNKTIRTPNIDRLASGGVKLTQHLAASPLCTPSRAAFMTGRYPVRSGMASWSRTGVFLFTASSGGLPTDEITFAKLLKDQGYSTALIGKWHLGMSCHSKTDFCHHPLHHGFNYFYGISLTNLRDCKPGEGSVFTTGFKRLVFLPLQIVGVTLLTLAALNCLGLLHVPLGVFFSLLFLAALILTLFLGFLHYFRPLNCFMMRNYEIIQQPMSYDNLTQRLTVEAAQFIQRNTETPFLLVLSYLHVHTALFSSKDFAGKSQHGVYGDAVEEMDWSVGQILNLLDELRLANDTLIYFTSDQGAHVEEVSSKGEIHGGSNGIYKGGKANNWEGGIRVPGILRWPRVIQAGQKIDEPTSNMDIFPTVAKLAGAPLPEDRIIDGRDLMPLLEGKSQRSDHEFLFHYCNAYLNAVRWHPQNSTSIWKAFFFTPNFNPVGSNGCFATHVCFCFGSYVTHHDPPLLFDISKDPRERNPLTPASEPRFYEILKVMQEAADRHTQTLPEVPDQFSWNNFLWKPWLQLCCPSTGLSCQCDREKQDKRLSR
B6: GlcAK1 (Arabidopsis thaliana, UniProt A0A1I9LRK4); chain KRVREEKMDPNSTVSGDGQATAAIEHRSFARIGFLGNPSDVYFGRTISLTIGNFWASVKLEPSEHLVIKPHPFHDLVQFTSLDHLLNRLQNEGYYGGVRLLMAICKVFRNYCKENDIQLHQANFSLSYDTNIPRQTGLSGSSAIVSAALNCLLDFYNVRHLIKVQVRPNIVLSAEKELGIVAGLQDRVAQVYGGLVHMDFSKEHMDKLGHGIYTPMDISLLPPLHLIYAENPSDSGKVHSMVRQRWLDGDEFIISSMKEVGSLAEEGRTALLNKDHSKLVELMNLNFDIRRRMFGDECLGAMNIEMVEVARRVGAASKFTGSGGAVVVFCPEGPSQVKLLEEECRKAGFTLQPVKIAPSCLNDSDIQTL
UniProt J7SZ64, sequence (whole entry, looked up): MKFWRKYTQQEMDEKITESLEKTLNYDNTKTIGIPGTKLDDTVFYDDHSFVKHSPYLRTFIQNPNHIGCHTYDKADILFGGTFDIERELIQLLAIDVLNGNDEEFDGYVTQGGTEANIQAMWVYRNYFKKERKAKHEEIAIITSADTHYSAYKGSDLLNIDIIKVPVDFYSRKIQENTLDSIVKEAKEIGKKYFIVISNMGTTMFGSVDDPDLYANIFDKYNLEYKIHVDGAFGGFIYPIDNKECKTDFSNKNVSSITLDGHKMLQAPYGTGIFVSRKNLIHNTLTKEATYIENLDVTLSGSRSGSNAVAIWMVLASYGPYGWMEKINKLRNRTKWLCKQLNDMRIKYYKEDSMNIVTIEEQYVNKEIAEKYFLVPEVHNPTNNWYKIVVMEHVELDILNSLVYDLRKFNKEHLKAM

For `ATIC (Cryptococcus neoformans, UniProt J9VJP1)`, the Vmax was 6.7 µmol/min/mg (NC(=O)c1ncn([C@@H]2O[C@H](COP(=O)(O)O)[C@@H](O)[C@H]2O)c1N; pH 7.5, 37 °C, KCl 25 mM, apparent, added: N10-formyl-tetrahydrofolate 0.1 mM).
For `B1 (EutE V13D)`, the Vmax was 11.5 µmol/min/mg (CC=O; lysate; not purified, added: CoA, NAD+).
With `B2 (Ptgds)` the Vmax was 5.4 µmol/min/mg ([H][C@]12C[C@]([H])(OO1)[C@H](C/C=C\CCCC(=O)O)[C@H]2/C=C/[C@@H](O)CCCCC; pH 8, 25 °C).
The Vmax of `pat (Salmonella enterica, UniProt Q8ZMX2)` is reported as 2.7 µmol/min/mg (CC(=O)SCCNC(=O)CCNC(=O)[C@H](O)C(C)(C)COP(=O)(O)OP(=O)(O)OC[C@H]1O[C@@H](n2cnc3c(N)ncnc32)[C@H](O)[C@@H]1OP(=O)(O)O; pH 7.5, 37 °C, apparent, sigmoidal fit, added: AcsC 400 µM).
`B3 (GLYR2)` gave a Vmax of 23 µmol/min/mg (NC(=O)C1=CN([C@@H]2O[C@H](COP(=O)(O)OP(=O)(O)OC[C@H]3O[C@@H](n4cnc5c(N)ncnc54)[C@H](OP(=O)(O)O)[C@@H]3O)[C@@H](O)[C@H]2O)C=CC1; pH 7.6, 30 °C, cofactor varied).
`B4 (xoxF1)` gave a Vmax of 1.86 µmol/min/mg (CO; 30 °C).
`B5 (STS)` gave a Vmax of 0.000883 µmol/min/mg ([H][C@@]12CC=C3C[C@@H](OS(=O)(=O)O)CC[C@]3(C)[C@@]1([H])CC[C@]1(C)C(=O)CC[C@@]21[H]; pH 7, 37 °C, not purified).
`protein I196L (UniProt Q52060)` has a Vmax of 15 µmol/min/mg (CC=O; lysate; not purified, added: CoA, NAD+).
The Vmax of `aromatic amino acid decarboxylase (Clostridium sporogenes, UniProt J7SZ64)` is reported as 0.3 µmol/min/mg (N[C@@H](Cc1c[nH]c2c(Br)cccc12)C(=O)O; pH 7, 37 °C, not purified, added: PLP 40 µM).
For `B6 (GlcAK1)`, the Vmax was 12.6 µmol/min/mg (Nc1ncnc2c1ncn2[C@@H]1O[C@H](COP(=O)(O)OP(=O)(O)OP(=O)(O)O)[C@@H](O)[C@H]1O; pH 7.5, 25 mM KCl, Hill fit, added: 1 mM GlcA; 10 mM MgCl2).

Repeated from above:
With `B2 (Ptgds)` the Vmax was 5.4 µmol/min/mg ([H][C@]12C[C@]([H])(OO1)[C@H](C/C=C\CCCC(=O)O)[C@H]2/C=C/[C@@H](O)CCCCC; pH 8, 25 °C).
